Published values collected from several papers.
Lines come from different studies, so protocols differ. ± marks the error that the study gave.

For C=CC(=O)Nc1cc(Nc2nccc(-c3c[nH]c4ccccc34)n2)c(OC)cc1N(C)CCN(C)C, the recovery was 93.3% (storage stability; human plasma; 24 h, -80 °C, medium QC level).
CC[C@H](C)[C@H](NC(=O)[C@H](Cc1ccc(O)cc1)NC(=O)[C@@H](NC(=O)[C@H](CCCNC(=N)N)NC(=O)[C@@H](N)CC(=O)O)C(C)C)C(=O)N[C@@H](Cc1c[nH]cn1)C(=O)N1CCC[C@H]1C(=O)O gave an AUC of 101 ng·h/mL (LC-MS/MS; Sprague-Dawley rats, both sexes, plasma; subcutaneous, 10 mg/kg/day, day 27).
CCCCN1C(=O)c2cccc3c(NCCN4CCOCC4)ccc(c23)C1=O has a fluorescence lifetime of 6.9 ns (water; pH 6.0).
For COc1cccc(OC)c1-c1cc(C(=O)NC2(C(=O)O)C3CC4CC(C3)CC2C4)nn1-c1ccc(C(=O)N(C)CCCN(C)CCCN(C)C(=O)[C@H](CCCCNC(=O)[C@H](CC(C)C)NC(=O)C2OC2C(=O)O)NC(=O)CN2CCN(CC(=O)[O-])CCN(CC(=O)[O-])CCN(CC(=O)[O-])CC2)cc1C(C)C.[177Lu+3] (mixture of isomers), “tumour-to-small intestine ratio” read 8.5 (mouse HT-29 xenograft; 4 h, biodistribution; relative to: tumour over small intestine).
CN1CCC[C@]1(C)/C=C/S(=O)(=O)NC(=O)Nc1c2c(cc3c1CCC3)CCC2: “subjects with adverse event” 16.7% (refers to: nervous system disorders; human; oral, 50 mg twice daily, 14 days, multiple ascending dose).
C=C[C@]1(C)C[C@@H](OC(=O)CSc2ccc(NC(=O)c3ccco3)cc2)[C@]2(C)[C@H](C)CC[C@]3(CCC(=O)[C@H]32)[C@@H](C)[C@@H]1O gave a %T>MIC of 89.5% (chickens; 5 mg/kg, 24 h).
For COc1cccc(OC)c1-c1cc(C(=O)NC2(C(=O)O)C3CC4CC(C3)CC2C4)nn1-c1ccc(C(=O)N(C)CCOCCOCCN(C)C(=O)[C@H](CCCCNC(=O)[C@H](CC(C)C)NC(=O)C2OC2C(=O)O)NC(=O)CN2CCN(CC(=O)[O-])CCN(CC(=O)[O-])CCN(CC(=O)[O-])CC2)cc1C(C)C.[177Lu+3] (mixture of isomers), “tumour-to-small intestine ratio” read 6.84 (mouse HT-29 xenograft; 4 h, biodistribution; relative to: tumour over small intestine).
Cc1cc(-c2ccc(C(=O)[C@@H]3CCCC[C@H]3C(=O)Nc3cnn4c3C(=O)NCC4)cc2)[nH]n1: “recovery of radioactivity per interval” 0.4% (human, faeces; oral, 200 mg, 144-168 h; relative to: dose).
OC1(C(F)(F)F)CCN(c2nc(Nc3ccnc(C(F)(F)F)c3)nc(-c3cccc(C(F)(F)F)n3)n2)C1 (stereo not shown) gave an MRT(0-inf) of 48 ± 9.93 h (monkey, blood; oral, 10 mg/kg).
Cc1noc(C)c1Cn1cc(N2C(=O)CN(Cc3cccc(OS(=O)(=O)O)c3)C2=O)cn1 has a plasma concentration of 1720 ng/mL (Sprague-Dawley rat, male; oral, 10 mg/kg of parent drug, 2 h).
O=C(Nc1cnccc1-c1ccc([18F])nc1)c1ccnc(NC(=O)C2CC2)c1 has an SUV of 0.551 (mice, transgenic, GSK-3β, early-stage, muscle; intravenous, dose not given, 120 min, added: tariquidar 15 mg/kg i.v. pre-dose).
CN(C)S(=O)(=O)c1ccc(S(=O)(=O)N2CCC(n3c(=O)[nH]c4ccccc43)CC2)cc1 has a solubility of less than 2 µg/mL (HPLC; corn oil; 24 h, 20 °C).
For CC[C@H](C)[C@@H]1NC(=O)[C@H](Cc2ccc(O)cc2)NC(=O)CCCSC[C@@H](C(=O)N(CC(=O)N[C@@H](CC(C)C)C(=O)NCC(N)=O)Cc2ccc(F)cc2)NC(=O)[C@H](CC(N)=O)NC(=O)[C@H](CCC(N)=O)NC1=O, “subjects with any TEAE” read 17% (human; intranasal, 100 µg single dose).
N=C(N)NCCC[C@@H]1NC(=O)[C@H](CO)NC(=O)[C@@H](NC(=O)[C@H](CO)NC(=O)[C@H](CO)NC(=O)[C@H](Cc2c[nH]c3ccccc23)NC(=O)CNC(=O)[C@H](CO)NC(=O)[C@@H](N)Cc2c[nH]c3ccccc23)CSSC[C@@H](C(=O)NCC(=O)O)NC(=O)[C@H](CO)NC1=O gave a Ctrough of 0 ng/mL (human, plasma; i.v., 5 mg/kg thrice weekly, 4 weeks, mean).
O=C(Nc1cnccc1-c1ccc([18F])cc1)c1ccnc(NC(=O)C2CC2)c1 has a mean SUV of 0.73 (ex vivo biodistribution, gamma counting; GSK-3β overexpressing transgenic mouse, late stage, pancreas; intravenous, 120 min post-injection, added: tariquidar 15 mg/kg iv, at least 120 min before tracer).
O=C([O-])CN1CCN(CC(=O)[O-])CCN(CC(CCCc2ccccc2[N+](=O)[O-])N(CC(=O)[O-])CC(=O)[O-])CC1.[90Y+3] (stereo not shown) — result for “intact radiolabelled complex”: 100% (HPLC; human serum; 23 h, pH 7, 37 °C).
For N#Cc1ccnc(N2C(=O)CC[C@H]2C(=O)N(c2cc(F)cc(F)c2)[C@H](C(=O)NC2CC(F)(F)C2)c2ccccc2Cl)c1 (stereo in doubt), the half-life was 12.5 h (cynomolgus monkey, plasma).
For CCCCC/C=C\CCCO[Si](CCCCCN(C)C)(OCCC/C=C\CCCCC)OCCC/C=C\CCCCC, the zeta potential was 0.46 mV (pH 7.5, formulated).
O=C(c1ccccc1)N1C(c2ccc(OCC3CCN(CCCF)C3)cc2)c2ccc(O)cc2CC12CC2 (stereo not shown): “AUC extrapolated percentage” 2.61% (C57BL/6J mice, plasma; oral, 25 mg/kg).
With Cc1ccc(OCC(=O)N(Cc2cccs2)c2ccn[nH]2)cc1 the remaining compound was 110% (ex vivo plasma stability; dog plasma; 750 ng/mL, 24 h, 37 °C).
CC(C)(O)c1ncc([S@](N)(=O)=NC(=O)Nc2c3c(cc4c2CCC4)CCC3)s1 — result for “subjects with TEAEs”: 50% (refers to: any system organ class; healthy human volunteers; oral, 300 mg single dose, spray-dried dispersion suspension).
C=C(NC(=O)c1csc(-c2nc3c(cc2O)-c2nc(cs2)C(=O)NC(C(C)O)C(=O)NC(=C(C)OC)c2nc(cs2)C(=O)NC2c4nc(cs4)C(=O)NC(COC(=O)c4c5c6c(cccc6n4O)COC(=O)C(OC4CC(C)(O)C(N(C)C)C(C)O4)C2OC5)c2nc-3cs2)n1)C(N)=O (stereo not shown) gave a Tmax of 0.08 h (Sprague-Dawley rat, plasma; intravenous, 2 mg/kg, single dose, infusion).
With Cc1cc(NC(=O)C(=O)N2C[C@@H](C)CC[C@@H]2c2ccc3scnc3c2)cnc1N the tissue/plasma ratio was roughly 0.15 (mouse, brain and plasma; relative to: brain over plasma).
For C/C(N)=N/C(=N\S(=O)(=O)c1ccc(C(F)(F)F)cc1)N1C[C@H](c2ccccc2)C(c2ccc(Cl)cc2)=N1, the Tmax was 0.25 h (male C57BL/6 mouse, heart; intravenous, 10 mg/kg).
CC(=O)N([O-])CCCCCNC(=O)CCC(=O)N([O-])CCCCCNC(=O)CCC(=O)N([O-])CCCCCN.[89Zr+4] has an intact compound of 96.2 ± 2.9% (0.9 % NaCl saline; 7 days, pH 4.5, 37 °C).

Some of these lines once more:
For CCCCC/C=C\CCCO[Si](CCCCCN(C)C)(OCCC/C=C\CCCCC)OCCC/C=C\CCCCC, the zeta potential was 0.46 mV (pH 7.5, formulated).
O=C(c1ccccc1)N1C(c2ccc(OCC3CCN(CCCF)C3)cc2)c2ccc(O)cc2CC12CC2 (stereo not shown): “AUC extrapolated percentage” 2.61% (C57BL/6J mice, plasma; oral, 25 mg/kg).
With Cc1ccc(OCC(=O)N(Cc2cccs2)c2ccn[nH]2)cc1 the remaining compound was 110% (ex vivo plasma stability; dog plasma; 750 ng/mL, 24 h, 37 °C).
CC(C)(O)c1ncc([S@](N)(=O)=NC(=O)Nc2c3c(cc4c2CCC4)CCC3)s1 — result for “subjects with TEAEs”: 50% (refers to: any system organ class; healthy human volunteers; oral, 300 mg single dose, spray-dried dispersion suspension).
